Measurements of several laboratories.
Each line is one published result; not all experiments were run side by side. Numbers after ± are the reported error.
Target: Dual specificity mitogen-activated protein kinase kinase 7 (MAP2K7, Homo sapiens, UniProt O14733)
One construct used (O14733 1-419): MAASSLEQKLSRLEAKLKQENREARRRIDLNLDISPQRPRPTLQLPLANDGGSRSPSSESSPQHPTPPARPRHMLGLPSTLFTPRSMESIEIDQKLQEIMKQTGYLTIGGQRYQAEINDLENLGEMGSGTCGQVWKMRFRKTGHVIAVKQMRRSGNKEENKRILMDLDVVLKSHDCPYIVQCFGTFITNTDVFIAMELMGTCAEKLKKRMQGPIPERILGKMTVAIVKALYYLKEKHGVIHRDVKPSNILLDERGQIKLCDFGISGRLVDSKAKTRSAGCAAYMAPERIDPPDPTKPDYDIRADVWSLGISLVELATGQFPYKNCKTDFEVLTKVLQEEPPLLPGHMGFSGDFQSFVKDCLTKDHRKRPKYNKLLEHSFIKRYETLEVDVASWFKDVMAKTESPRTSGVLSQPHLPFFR

C=CC(=O)N1CCC([C@@H]2CCNc3c(C(N)=O)c(-c4ccc(Oc5ccccc5)cc4)nn32)CC1 gave a remaining activity of 105.1 ± 0.2% (kinase activity, inhibitor, HotSpot radiometric; 100 nM, with: ATP 10 µM).
CNCc1ccc(-c2cc(-c3nc(-c4ccc(S(=O)(=O)C(C)C)cc4)cnc3N)on2)cc1 gave an inhibition of 0% (enzyme activity; 0.4 µM, with: ATP at Km).
With CCN(CC)c1ccc(C2=NNC(=O)CC2C)cc1[N+](=O)[O-] (stereo not shown) the remaining activity was 102% (enzyme activity, inhibitor; 10 µM; reference: vehicle).
The SILAC ratio of C#Cc1cccc(Oc2ccc(-c3nn([C@@H]4CCCN(C(=O)C=C)C4)c4ncnc(N)c34)cc2)c1 is reported as 20 (ABPP-SILAC; 1 µM, 1 h; reference: DMSO).
With COc1ccc(F)cc1C(=O)NCc1ccc(-c2nn([C@@H](C)C(F)(F)F)c(N)c2C(N)=O)cc1 the remaining activity was 97.6 ± 2% (kinase activity, inhibitor, HotSpot radiometric; 100 nM, with: ATP 10 µM).
The remaining activity of COc1cc(F)ccc1-c1ncnc(Nc2cccc(C[S@](C)(=N)=O)c2)n1 is reported as 130% (kinase activity; 10 µM, with: 10 µM ATP).
With Cc1cc(Nc2cc(N3CCN(C)CC3)nc(Sc3ccc(NC(=O)C4CC4)cc3)n2)[nH]n1 the remaining activity was 128% (kinase activity, KinaseProfiler; 0.03 µM, species human; reference: control).
For CCN1CCN(Cc2ccc(NC(=O)c3ccc(C)c(/C=C/c4cnc5[nH]ccc5c4OC)c3)cc2C(F)(F)F)CC1, the inhibition was -21.9% (A-375; 0.05 µM).
COc1cc(Cl)c(C(=O)N[C@@H](CN[C@H]2CC[C@@H](N)CC2)Cc2ccc(C#N)cc2)cc1-c1ccc(CN[C@H](C)c2ccc(C)cc2)o1 has a remaining activity of 92% (enzyme activity, KinaseProfiler panel; 1 µM).
CNc1ncc2c(/C=C/C(=O)N3CCC(OC)CC3)nn(Cc3cccc(C(F)(F)F)c3)c2n1 has a remaining activity of 88% (kinase activity, inhibitor; 1 µM; reference: untreated control).
With CC(C)c1ccc(NC(=O)c2cccs2)c(-c2nc3ccccc3[nH]c2=O)c1 the remaining activity was 82% (kinase activity; 1 µM).
For C1=C/COCc2cc(ccc2OCCN2CCCC2)Nc2nccc(n2)-c2cccc(c2)COC/1, “percent of control” read 73% (concentration not given, gene name MKK7).
The remaining binding of C=CC(=O)N1CCC(COCC(=O)N2CCN(c3nc(-c4cnc(N)nc4C(F)F)nc(N4CCOC[C@@H]4C)n3)CC2)CC1 is reported as 74% (KINOMEscan; 1 µM; reference: DMSO control).
